Assay results from different studies.
Values joined by “and” are separate records of one study, mostly repeats; a detail may differ.
Target: TGF-beta receptor type-1 (TGFBR1, Homo sapiens, UniProt P36897)
One construct used (P36897 34-503): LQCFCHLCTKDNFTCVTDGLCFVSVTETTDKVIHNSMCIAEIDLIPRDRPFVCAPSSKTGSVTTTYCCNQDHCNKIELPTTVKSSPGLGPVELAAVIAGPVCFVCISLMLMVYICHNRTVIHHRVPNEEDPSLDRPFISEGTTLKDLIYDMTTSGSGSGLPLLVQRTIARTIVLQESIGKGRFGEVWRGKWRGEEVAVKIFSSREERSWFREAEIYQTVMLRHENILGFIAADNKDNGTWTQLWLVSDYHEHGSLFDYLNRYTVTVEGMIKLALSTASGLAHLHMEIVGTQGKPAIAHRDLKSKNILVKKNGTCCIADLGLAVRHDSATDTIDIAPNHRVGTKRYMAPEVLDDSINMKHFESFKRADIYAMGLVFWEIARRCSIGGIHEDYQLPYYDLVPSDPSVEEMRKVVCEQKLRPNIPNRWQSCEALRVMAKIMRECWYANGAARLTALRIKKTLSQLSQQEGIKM

Structure (SMILES) | assay | test system | conditions | scale | quantity | result
COc1cc(Nc2nc(C)cc(-c3cnn4nc(OC)ccc34)n2)cc(C(F)(F)F)c1 | binding, competition with immobilised ligand | – | 1 µM | – | remaining binding | 100%
C=C1CCCCCCCCCC(CO)C1=O (centres unmarked) | cell-free assay | – | 10 µM | – | remaining signal | 100%
NC(=O)[C@@H](O)C[C@H]1CCc2sc3ncnc(O[C@H]4CC[C@H](N5CCOCC5)CC4)c3c21 | enzyme activity, inhibitor | – | 10 µM | – | inhibition | -5%
CCN1CCN(Cc2ccc(NC(=O)c3ccc(C)c(NC(=O)c4cncc(-c5cnn(C)c5)c4)c3)cc2C(F)(F)F)CC1 | binding, competition with immobilised ligand | – | 1 µM | – | remaining binding | 91%
CC(=O)N1c2ccc(-c3ccc(CNC(=O)c4cn5cc(-c6cnc(N)nc6)nc(N6CCOCC6)c5n4)cc3)cc2CC[C@@H]1C | KINOMEscan | – | 10 µM | – | remaining binding | 99%
Nc1ncc2c(n1)-c1c([nH]c3ccc(C4=CCOCC4)cc13)CCC2 | binding, competition with immobilised ligand | – | 1 µM | – | remaining binding | 100%
CN1CCN(Cc2ccc(NC(=O)c3cccc(C#Cc4cnc(N)c5ncccc45)c3)cc2C(F)(F)F)CC1 | cell-free assay, competition with immobilised ligand | – | 50 nM | – | remaining binding | 100%
Cc1nc2c(F)cc(-c3nc(Nc4ccc(CNC(=O)CCCCCCC(=O)NO)cc4)ncc3F)cc2n1C(C)C | enzyme activity, inhibitor | – | 1 µM | – | inhibition | 44%
CNS(=O)(=O)Nc1nccc(Cc2c(C)c3ccc(Oc4ncccc4F)cc3oc2=O)c1F | cell-free assay, competition with immobilised ligand | – | 10 µM | – | remaining binding | 90%
CNC1C[S+]2CC[S+]3CC[S+](C1)[Ru-4]321([N]=C=S)[n]2c3ccc(OC)cc3c3c4c(c5cc(F)c[n+]1c5c32)C(=O)NC4=O (centres unmarked) | KinomeScan | – | 0.1 µM | relative to: untreated | remaining binding | 100%
Cc1cnc2nc1Nc1cccc(c1)COC/C=C/COCc1cc(ccc1OCCN1CCOCC1)N2 | binding, competition with immobilised ligand | – | 0.1 µM | – | remaining binding | 90%
CN1CC[C@@H](COc2cnc(C#N)cc2-c2ccn3nc(NC(=O)C4CC4)cc3c2)C1 | enzyme activity, inhibitor | – | 1 µM | – | inhibition | 9%
COc1ccc(O)cc1-c1c[nH]c2ncc(-c3cncc(C(=O)N(C)C)c3)cc12 | binding, competition with immobilised ligand | – | 0.2 µM | – | inhibition | 16.6%
Cc1ccc(C(=O)Nc2ccc(CN3CCN(C)CC3)c(C(F)(F)F)c2)cc1C#Cc1cnc2cccnn12 | target engagement, NanoBRET | human cells | – | – | upper asymptote | 7.4
N[C@H]1CC[C@H](Nc2nccc(-c3cccnc3Oc3ccc(NC(=O)NC4CC4)c4ccccc34)n2)CC1 | kinobead competition pulldown | HEK293/HCT116 lysate mixture | 10 µM, 1 h, 4 °C | lower = stronger competition | log2 LFQ intensity | 25.2 and 25.1
COc1ccc(NC(=O)Nc2ccc3c(c2)C(=O)N(C(C)CO)CC(C)C(CN(C)Cc2ccc4c(c2)OCO4)O3)cc1 (centres unmarked) | kinase activity, KinaseProfiler | – | 0.03 µM, species human | relative to: control | remaining activity | 101%
CNC(=O)C[C@H](Cc1ccc(C#N)cc1)NC(=O)c1cc(-c2ccc(CN[C@H](C)c3ccc(C)cc3)o2)ccc1Cl | enzyme activity, inhibitor | – | 1 µM | – | activity vs control | 100%

Repeated from above:
Structure (SMILES) | assay | test system | conditions | scale | quantity | result
CNS(=O)(=O)Nc1nccc(Cc2c(C)c3ccc(Oc4ncccc4F)cc3oc2=O)c1F | cell-free assay, competition with immobilised ligand | – | 10 µM | – | remaining binding | 90%
CNC1C[S+]2CC[S+]3CC[S+](C1)[Ru-4]321([N]=C=S)[n]2c3ccc(OC)cc3c3c4c(c5cc(F)c[n+]1c5c32)C(=O)NC4=O (centres unmarked) | KinomeScan | – | 0.1 µM | relative to: untreated | remaining binding | 100%
